Measurements of several laboratories.
Each line is one published result; not all experiments were run side by side. Several values in a cell are separate wells, animals, samples, runs or records. ± gives the spread as reported.
CASP7: Caspase-7 (CASP7, Homo sapiens, UniProt P55210)
Sequence of UniProt P55210 (whole entry, looked up): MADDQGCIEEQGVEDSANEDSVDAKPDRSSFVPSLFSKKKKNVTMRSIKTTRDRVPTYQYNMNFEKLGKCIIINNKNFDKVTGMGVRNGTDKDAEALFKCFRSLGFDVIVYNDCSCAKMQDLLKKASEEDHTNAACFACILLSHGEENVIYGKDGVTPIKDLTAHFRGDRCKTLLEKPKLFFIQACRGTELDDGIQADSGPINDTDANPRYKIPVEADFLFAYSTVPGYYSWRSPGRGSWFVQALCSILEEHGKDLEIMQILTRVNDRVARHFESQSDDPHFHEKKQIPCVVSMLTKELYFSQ
T1: riboswitch RNA yjdF aptamer domain (Bacillus subtilis); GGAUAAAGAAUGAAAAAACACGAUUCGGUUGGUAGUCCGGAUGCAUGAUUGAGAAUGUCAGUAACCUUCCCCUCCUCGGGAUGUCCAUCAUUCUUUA
Sequence of UniProt P09936 (whole entry, looked up): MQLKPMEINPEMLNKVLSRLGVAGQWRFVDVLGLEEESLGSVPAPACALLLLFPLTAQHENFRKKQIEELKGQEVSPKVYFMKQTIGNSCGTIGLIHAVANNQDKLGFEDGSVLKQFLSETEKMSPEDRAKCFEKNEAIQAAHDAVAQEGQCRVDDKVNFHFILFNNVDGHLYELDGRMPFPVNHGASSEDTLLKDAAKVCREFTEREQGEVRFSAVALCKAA
Sequence of UniProt Q9HBA0 (whole entry, looked up): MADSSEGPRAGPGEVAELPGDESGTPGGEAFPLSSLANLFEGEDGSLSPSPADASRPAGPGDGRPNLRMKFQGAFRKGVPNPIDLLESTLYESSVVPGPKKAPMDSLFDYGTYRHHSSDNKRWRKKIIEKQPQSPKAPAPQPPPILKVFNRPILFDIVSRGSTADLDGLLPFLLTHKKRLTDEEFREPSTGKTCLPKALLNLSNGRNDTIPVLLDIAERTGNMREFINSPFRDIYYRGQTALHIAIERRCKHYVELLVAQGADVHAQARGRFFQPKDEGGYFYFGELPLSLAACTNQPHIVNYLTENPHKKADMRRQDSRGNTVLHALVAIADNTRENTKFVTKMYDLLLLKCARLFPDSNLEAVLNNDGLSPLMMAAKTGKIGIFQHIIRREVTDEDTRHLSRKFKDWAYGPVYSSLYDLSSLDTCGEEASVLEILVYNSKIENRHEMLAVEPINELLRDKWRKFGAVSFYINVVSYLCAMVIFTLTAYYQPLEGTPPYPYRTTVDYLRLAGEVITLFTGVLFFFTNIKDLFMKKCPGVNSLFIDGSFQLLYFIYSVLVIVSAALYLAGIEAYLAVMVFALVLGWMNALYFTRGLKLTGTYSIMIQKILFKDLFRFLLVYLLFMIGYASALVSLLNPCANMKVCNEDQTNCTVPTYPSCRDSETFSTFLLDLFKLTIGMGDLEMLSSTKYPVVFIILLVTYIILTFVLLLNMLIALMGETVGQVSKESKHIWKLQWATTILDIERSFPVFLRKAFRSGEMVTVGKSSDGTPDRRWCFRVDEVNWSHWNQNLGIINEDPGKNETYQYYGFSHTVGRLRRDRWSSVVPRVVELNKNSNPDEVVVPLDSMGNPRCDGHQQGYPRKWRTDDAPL
Sequence of UniProt P19491 (whole entry, looked up): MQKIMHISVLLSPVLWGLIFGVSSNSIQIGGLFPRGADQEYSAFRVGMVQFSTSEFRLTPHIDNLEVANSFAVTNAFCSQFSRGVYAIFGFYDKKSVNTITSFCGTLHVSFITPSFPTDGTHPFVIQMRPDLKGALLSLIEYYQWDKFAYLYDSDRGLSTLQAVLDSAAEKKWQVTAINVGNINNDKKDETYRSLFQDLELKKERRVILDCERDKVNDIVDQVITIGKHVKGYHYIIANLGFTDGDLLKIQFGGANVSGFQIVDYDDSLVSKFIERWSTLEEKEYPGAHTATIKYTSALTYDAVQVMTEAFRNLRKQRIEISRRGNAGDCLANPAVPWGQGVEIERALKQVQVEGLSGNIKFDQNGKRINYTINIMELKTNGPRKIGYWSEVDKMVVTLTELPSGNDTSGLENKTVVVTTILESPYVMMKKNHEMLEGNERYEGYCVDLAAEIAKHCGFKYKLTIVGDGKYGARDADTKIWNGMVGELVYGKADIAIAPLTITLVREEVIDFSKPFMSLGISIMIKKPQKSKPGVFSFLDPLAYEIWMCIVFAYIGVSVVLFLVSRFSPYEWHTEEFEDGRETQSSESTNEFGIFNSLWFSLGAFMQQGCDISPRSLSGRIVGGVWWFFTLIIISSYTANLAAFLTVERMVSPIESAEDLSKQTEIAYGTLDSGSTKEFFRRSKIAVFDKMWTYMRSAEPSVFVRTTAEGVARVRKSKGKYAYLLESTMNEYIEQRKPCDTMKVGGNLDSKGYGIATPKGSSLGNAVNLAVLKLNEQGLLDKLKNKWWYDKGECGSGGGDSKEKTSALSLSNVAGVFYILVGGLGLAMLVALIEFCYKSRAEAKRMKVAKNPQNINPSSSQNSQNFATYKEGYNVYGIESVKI
Sequence of UniProt P35372 (whole entry, looked up): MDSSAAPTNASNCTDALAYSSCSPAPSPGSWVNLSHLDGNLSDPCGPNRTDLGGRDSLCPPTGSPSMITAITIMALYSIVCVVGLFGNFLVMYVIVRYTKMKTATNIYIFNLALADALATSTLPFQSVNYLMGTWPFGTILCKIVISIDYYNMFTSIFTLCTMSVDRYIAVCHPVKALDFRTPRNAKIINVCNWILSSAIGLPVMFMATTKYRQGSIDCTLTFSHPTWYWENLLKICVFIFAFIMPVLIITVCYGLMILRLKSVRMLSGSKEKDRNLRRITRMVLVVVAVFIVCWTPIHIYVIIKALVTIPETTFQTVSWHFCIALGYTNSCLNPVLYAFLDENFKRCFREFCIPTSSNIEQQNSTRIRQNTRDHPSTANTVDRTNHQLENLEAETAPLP
Sequence of UniProt Q13148 (whole entry, looked up): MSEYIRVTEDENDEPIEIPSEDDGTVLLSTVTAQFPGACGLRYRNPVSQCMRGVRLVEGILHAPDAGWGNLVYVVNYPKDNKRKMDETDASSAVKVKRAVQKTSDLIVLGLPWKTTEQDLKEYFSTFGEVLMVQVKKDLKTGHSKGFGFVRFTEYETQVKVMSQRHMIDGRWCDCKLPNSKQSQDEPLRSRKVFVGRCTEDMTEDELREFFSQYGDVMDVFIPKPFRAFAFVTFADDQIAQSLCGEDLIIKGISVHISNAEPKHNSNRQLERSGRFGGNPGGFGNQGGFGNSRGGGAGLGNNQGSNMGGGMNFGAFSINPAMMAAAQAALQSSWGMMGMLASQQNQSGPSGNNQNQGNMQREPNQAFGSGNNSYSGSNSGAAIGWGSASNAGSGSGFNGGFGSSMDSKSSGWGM
Sequence of UniProt P08191 (whole entry, unmodified, looked up): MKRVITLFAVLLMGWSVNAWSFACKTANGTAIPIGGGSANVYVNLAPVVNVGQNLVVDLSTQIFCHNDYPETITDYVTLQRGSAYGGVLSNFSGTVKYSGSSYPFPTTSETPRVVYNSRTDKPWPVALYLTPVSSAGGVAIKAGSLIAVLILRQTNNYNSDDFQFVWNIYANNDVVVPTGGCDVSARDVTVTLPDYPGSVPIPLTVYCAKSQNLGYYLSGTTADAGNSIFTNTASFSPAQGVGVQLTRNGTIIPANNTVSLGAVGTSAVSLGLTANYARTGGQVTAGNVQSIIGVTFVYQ
Sequence of UniProt Q15021 (whole entry, looked up): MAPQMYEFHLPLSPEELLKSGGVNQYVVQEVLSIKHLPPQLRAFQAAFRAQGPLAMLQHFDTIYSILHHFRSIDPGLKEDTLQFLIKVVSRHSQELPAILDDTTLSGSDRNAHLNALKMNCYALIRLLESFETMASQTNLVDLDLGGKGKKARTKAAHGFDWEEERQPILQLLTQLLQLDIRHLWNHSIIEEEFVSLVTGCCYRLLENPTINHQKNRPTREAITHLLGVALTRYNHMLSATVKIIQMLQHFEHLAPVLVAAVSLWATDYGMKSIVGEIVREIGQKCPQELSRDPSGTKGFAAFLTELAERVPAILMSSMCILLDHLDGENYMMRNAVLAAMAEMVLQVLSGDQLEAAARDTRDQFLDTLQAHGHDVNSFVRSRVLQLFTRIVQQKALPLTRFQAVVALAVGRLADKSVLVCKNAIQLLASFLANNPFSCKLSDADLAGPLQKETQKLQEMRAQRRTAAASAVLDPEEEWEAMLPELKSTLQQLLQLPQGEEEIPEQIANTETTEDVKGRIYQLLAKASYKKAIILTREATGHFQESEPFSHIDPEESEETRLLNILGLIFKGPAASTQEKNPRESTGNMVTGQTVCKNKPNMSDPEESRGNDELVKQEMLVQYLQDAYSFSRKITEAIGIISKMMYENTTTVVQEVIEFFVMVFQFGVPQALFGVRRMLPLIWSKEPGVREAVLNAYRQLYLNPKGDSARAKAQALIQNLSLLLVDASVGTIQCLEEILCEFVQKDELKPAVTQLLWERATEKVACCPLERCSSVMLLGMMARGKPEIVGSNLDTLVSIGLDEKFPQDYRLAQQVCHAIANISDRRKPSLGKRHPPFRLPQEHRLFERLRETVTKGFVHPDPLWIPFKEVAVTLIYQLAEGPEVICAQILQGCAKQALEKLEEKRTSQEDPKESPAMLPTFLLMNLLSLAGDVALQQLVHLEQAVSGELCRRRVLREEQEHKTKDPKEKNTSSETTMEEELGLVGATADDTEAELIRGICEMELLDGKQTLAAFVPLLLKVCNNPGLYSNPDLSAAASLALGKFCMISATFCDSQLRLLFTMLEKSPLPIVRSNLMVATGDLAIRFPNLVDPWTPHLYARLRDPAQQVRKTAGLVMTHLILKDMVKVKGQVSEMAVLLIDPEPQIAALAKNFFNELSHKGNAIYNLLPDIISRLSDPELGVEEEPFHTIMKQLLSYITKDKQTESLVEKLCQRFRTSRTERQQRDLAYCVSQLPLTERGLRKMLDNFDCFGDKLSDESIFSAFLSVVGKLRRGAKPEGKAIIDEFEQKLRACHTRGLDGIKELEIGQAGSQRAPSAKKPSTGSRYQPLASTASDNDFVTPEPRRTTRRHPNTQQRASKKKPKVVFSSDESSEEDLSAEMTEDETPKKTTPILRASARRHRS

Structure (SMILES)	tested on	assay	test system	setting	scale	endpoint	value
COC1CN([C@H]2CC[C@H]([C@@]3(C)Oc4c(Cl)cc(C(=O)NCc5c(SC)cc(C)[nH]c5=O)c(C)c4O3)CC2)C1		RNA-seq, measured: PHLDA3	human, whole blood	dose not given, 24 h	relative to: pretreatment baseline	log2 fold change	1.31
O=C(c1cc(-c2ccccc2)n(-c2ccccc2)n1)N(Cc1ccccn1)CC1CCCO1 (stereo not shown)	Genome polyprotein, NS2B-NS3 protease (dengue virus type 2, UniProt P29990)	enzyme activity, fluorogenic AMC substrate		50 µM		inhibition	17%
CC(=O)C12NC(C)(C)CC1(C)C(=O)C1=C2c2c(c3c4n2C(C)(C)CC2=C4C4(CC(C)(C)NC(C)(C4)C2=O)CC3(C)C)C(=O)C(C)(C)N1 (single isomer, unassigned; (+))	OPRM1 (Homo sapiens, UniProt P35372)	cAMP level, agonist, LANCE Ultra cAMP	CHO	50 µM		activation	1.59 ± 0.66%
N#CN1CC[C@H](C(=O)Nc2nc3c(s2)CN(C(=O)Cn2cc(CNC(=O)CCCC[C@@H]4SC[C@@H]5NC(=O)N[C@@H]54)nn2)CC3)C1	UCHL1 (Homo sapiens, UniProt P09936)	probe binding, affinity probe, neutravidin pull-down LC-MS/MS	HEK293T, cell lysate	5 µM, 1 h, single replicate, unit not given	higher = more pulled down	iBAQ abundance	1.59e+09 and 3.37e+09 and 1.65e+09
C/C1=C\CC/C(C)=C/CC(C)(C)/C=C/C1	TRPV4 (Homo sapiens, UniProt Q9HBA0)	inhibitor, outside-out patch clamp		together with: GSK1016790A 1 µM		Hill coefficient	1.2
CCCCCCCO[C@H]1CO[C@H](CO)[C@@H](O)[C@H](O)[C@@H]1O	Type 1 fimbrin D-mannose specific adhesin, lectin domain (fimH, Escherichia coli K-12, UniProt P08191)	binding, isothermal titration calorimetry		37 °C, global fit of two titrations		ΔG	-8.77 kcal/mol
CN(CCO)c1cc2sc(/C=C(\C#N)c3ccc(C#N)cc3)cc2s1	T1, riboswitch RNA yjdF aptamer domain (Bacillus subtilis)	fluorescence titration				Kd	1.1 µM
COc1cc(C2C(NC(=O)c3ccc(NC(=O)OC(C)(C)C)cc3)(C(=O)O)C(c3ccc(OC(=O)c4cccs4)c(OC)c3)C2(NC(=O)c2ccc(NC(=O)OC(C)(C)C)cc2)C(=O)O)ccc1OC(=O)c1cccs1 (stereo not shown)	GLP1R (Homo sapiens, UniProt P43220, L384A)	cAMP accumulation, agonist		receptor mutant	relative to: wild type	Emax	4.85 ± 3.17%
CC(=O)N[C@@H](CC(C)C)C(=O)N[C@@H](CCC(=O)O)C(=O)N[C@H](C(=O)N[C@@H](CC(=O)O)C(=O)COC(=O)c1c(C)cccc1C)[C@@H](C)O	CASP7	enzyme activity, inhibitor				kinact/KI	37500 M⁻¹ s⁻¹
Cc1ncsc1-c1ccc(C(C)NC(=O)C2CC(O)CN2C(=O)C(NC(=O)CCCCCCCCCCN2CCCC(Nc3ncc(Cl)c(Nc4ccccc4S(=O)(=O)C(C)C)n3)C2)C(C)(C)C)cc1 (stereo not shown)	22Rv1	RNA-seq, measured: PCLO mRNA		concentration not given	relative to: DMSO	log2 fold change	-1.57
CC[C@H](C)[C@H](NC(=O)[C@H](CO)NC(=O)[C@H](CO)NC(=O)[C@H](CCC(=O)O)NC(=O)[C@H](CCC(=O)O)NC(=O)[C@H](CCCCN)NC(=O)[C@H](CO)NC(=O)[C@@H](NC(=O)[C@H](CO)NC(=O)[C@H](CC(C)C)NC(=O)[C@H](Cc1ccccc1)NC(=O)[C@H](CCCNC(=N)N)NC(=O)[C@H](C)NC(=O)[C@H](Cc1ccccc1)NC(=O)[C@H](Cc1ccccc1)NC(=O)[C@@H]1CCCN1C(=O)[C@H](CC(C)C)NC(=O)[C@H](C)NC(=O)[C@H](CCCCN)NC(=O)CNC(=O)[C@H](CCC(N)=O)NC(=O)[C@H](CCC(N)=O)NC(=O)[C@H](CC(=O)O)NC(=O)[C@H](CC(N)=O)NC(=O)[C@@H]1CCCN1C(=O)[C@H](Cc1ccc(O)cc1)NC(=O)[C@H](C)NC(=O)[C@@H](N)CCSC)C(C)C)C(=O)N[C@@H](CCCCN)C(=O)N[C@@H](CO)C(=O)N1CCC[C@H]1C(=O)N[C@@H](CO)C(=O)N1CCC[C@H]1C(=O)N[C@@H](CC(=O)O)C(=O)N[C@@H](Cc1c[nH]cn1)C(=O)N[C@@H](CCC(=O)O)C(=O)N[C@H](C(=O)N[C@@H](CO)C(=O)N[C@H](C(=O)N[C@@H](CCCNC(=N)N)C(=O)N[C@@H](CCCCN)C(=O)N[C@@H](Cc1ccc(O)cc1)C(=O)N1CCC[C@H]1C(=O)N[C@@H](CO)C(=O)N[C@@H](CC(=O)O)C(=O)N[C@@H](Cc1c[nH]c2ccccc12)C(=O)N[C@@H](CCC(=O)O)C(=O)N[C@@H](CCC(=O)O)C(=O)N[C@@H](Cc1c[nH]c2ccccc12)C(=O)O)[C@@H](C)O)[C@@H](C)CC	uncharacterized protein (Microcystis aeruginosa MRC, UniProt B2G3C9)	isothermal titration calorimetry		concentration not given, pH 8.0, 25 °C		binding stoichiometry	0.8 ± 0.1
CCCCCC=CC=C1C(=O)C=CC1CC=CCCCC(=O)O (stereo not shown)	Condensin complex subunit 1 (Homo sapiens, UniProt Q15021)	competitive isoTOP-ABPP, measured: NCAPD2 cysteine peptide	Ramos soluble proteome	100 µM, together with: iodoacetamide probe	relative to: DMSO over compound-treated, higher = stronger cysteine blockade	isoTOP-ABPP competition ratio	3.3
CC(=O)N[C@@H](CC(=O)O)C(=O)N[C@@H](CO)C(=O)N[C@@H](C)C(=O)N[C@@H](CC(=O)O)C(=O)COC(=O)c1c(C)cccc1C	CASP7	enzyme activity, inhibitor				kinact/KI	156000 M⁻¹ s⁻¹
O=C1c2sc(-c3ccc(N4CCC(F)C4)nc3F)nc2CCN1c1cccnc1 (stereo not shown)	TAR DNA-binding protein 43, aggregated (TARDBP, Homo sapiens, UniProt Q13148)	binding, surface plasmon resonance	brain-derived TDP-43 aggregates	4.69 nM		SPR response	0.567 RU
COC(=O)Cc1cc2c(cc1C(=O)c1ccc(Cl)cc1Cl)OCO2	Gria2 (Rattus norvegicus, UniProt P19491)	glutamate-evoked current, whole-cell patch clamp	HEK-293T	concentration not given, glutamate alone after washout, together with: glutamate		current amplitude after recovery	1260 ± 64 pA
CNC(=O)c1cnc(Nc2ccncc2)nc1-c1ccc(C)cc1	human kinase panel	binding, KINOMEscan		10000 nM, %Ctrl below 35		number of kinases hit	3

A few entries again:
Structure (SMILES)	tested on	assay	test system	setting	scale	endpoint	value
O=C1c2sc(-c3ccc(N4CCC(F)C4)nc3F)nc2CCN1c1cccnc1 (stereo not shown)	TAR DNA-binding protein 43, aggregated (TARDBP, Homo sapiens, UniProt Q13148)	binding, surface plasmon resonance	brain-derived TDP-43 aggregates	4.69 nM		SPR response	0.567 RU
